Published values gathered from unrelated publications.
Each line is one published result; not all experiments were run side by side. Values joined by “and” are separate records of one study, mostly repeats; a detail may differ. ± gives the spread as reported.

O=C(O)/C=C/c1cc(O)cc(O)c1  ABTS radical scavenging (250 µg/mL): 65.2 ± 1.03%
CC[C@H](C)[C@H](NC(=O)[C@@H](NC(=O)[C@H](CC(=O)O)NC(C)=O)[C@@H](C)O)C(=O)N[C@@H](CCCNC(=N)N)C(=O)N[C@@H](CC(C)C)C(=O)N[C@@H](CC(C)C)C(=O)N[C@@H](Cc1ccccc1)C(=O)N[C@@H](CCC(N)=O)C(=O)N[C@@H](CC(C)C)C(=O)N[C@@H](CCSC)C(=O)N[C@@H](CCCNC(=N)N)C(=O)N1CCC[C@H]1C(=O)N1CCC[C@H]1C(=O)N[C@@H](CC(N)=O)C(=O)N[C@@H](CCSC)C(=O)N[C@H](C(=O)N1CCC[C@H]1C(=O)N[C@@H](C)C(=O)N[C@H](C(=O)N[C@@H](CC(N)=O)C(=O)N[C@@H](C)C(N)=O)C(C)C)[C@@H](C)O  α4β7+ CCR9− cells (item: HA-23 tetramer; antigen-experienced tetramer+ CD4 T cells, healthy adults, HLA-DRB1*0101; dose not given): 75%
Cc1ccc(COP(=O)(O)Oc2c3c(c(OP(=O)(O)OCc4ccc(C)cc4)c4c2C2CC4c4cc5c(cc42)C2CC5c4ccccc42)C2CC3c3cc4c(cc32)C2CC4c3ccccc32)cc1  EC50 (liposome dye leakage; liposomes 200 nm; 30 min, added: carboxyfluorescein 50 mM): 3000 nM
CN[C@](C)(C[18F])C(=O)O  tracer uptake (DU-145 tumour model; host not given, lung; 1 h, tumour-bearing): 1.7 %ID/g
CC[C@H](C)[C@H](NC(=O)[C@H](Cc1c[nH]c2ccccc12)NC(=O)[C@H](CCCNC(=N)N)NC(=O)[C@H](CCCCN)NC(=O)[C@H](CC(C)C)NC(=O)[C@H](CC(=O)O)NC(=O)[C@H](Cc1ccccc1)NC(=O)[C@H](C)NC(=O)[C@H](Cc1ccc(O)cc1)NC(=O)[C@H](CC(N)=O)NC(=O)[C@H](Cc1ccc(O)cc1)NC(=O)[C@H](CCCNC(=N)N)NC(=O)[C@H](Cc1ccc(O)cc1)NC(=O)[C@H](Cc1ccc(O)cc1)NC(=O)[C@@H](NC(=O)[C@H](CC(C)C)NC(=O)[C@H](C)NC(=O)[C@H](CC(N)=O)NC(=O)[C@H](Cc1ccc(O)cc1)NC(C)=O)[C@@H](C)CC)C(=O)N[C@@H](Cc1ccc(O)cc1)C(=O)N[C@@H](CC(C)C)C(N)=O  antigen-experienced T cells (item: HA-52 tetramer; tetramer+ CD4 T cells, PBMC, healthy adults, HLA-DRB1*0101; dose not given, CD62L−CD45RA+/− or CD62L+CD45RA−): 22.6%
somatostatin  GFAP-positive glial activation (Sprague-Dawley rat, streptozotocin-induced diabetes, retina; eye drops, 10 mg/mL, score 2): 0%
Cc1ccc(/C=C/C(=O)O)cc1-c1cc2c(cc1C)C(C)(C)CCC2(C)C  log2 fold change (RNA sequencing, item: Cga mRNA; rat, brain; dose not given, 24 h, single dose; baseline: vehicle): 3.2
CCOP(=O)(OCC)OCCCCOC(=O)CC1=C(C)/C(=C/c2ccc([S+](C)[O-])cc2)c2ccc(F)cc21 (stereo not shown)  cartilage damage (rat, Freund's adjuvant arthritis; oral, 50 mg/kg once daily, prevention protocol): no effect
O=C(O)CCCC(=O)O  ABTS radical scavenging (125 µg/mL): 55.1 ± 2.51%
O=C1C(P(=O)(O)O)CCCN1O (stereo not shown)  blood glucose level (cynomolgus monkey; dose not given, fasting state): decreased
CC[C@H](C)[C@H](NC(=O)[C@H](CCC(=O)O)NC(=O)CNC(=O)[C@@H](NC(=O)[C@H](CC(C)C)NC(=O)[C@H](CC(C)C)NC(=O)[C@H](CC(C)C)NC(=O)[C@H](CC(C)C)NC(=O)[C@H](CS)NC(=O)[C@H](CO)NC(=O)[C@H](Cc1ccccc1)NC(=O)CNC(=O)[C@H](CCCNC(=N)N)NC(=O)[C@@H]1CCCN1C(=O)[C@H](C)NC(=O)[C@H](CCSC)NC(=O)CNC(=O)CNC(=O)[C@H](Cc1ccccc1)NC(=O)[C@H](CCCCN)NC(=O)[C@H](Cc1c(C)cc(O)cc1C)NC(=O)[C@H](N)CCCNC(=N)N)[C@@H](C)O)C(=O)N[C@@H](CC(=O)O)C(=O)N[C@@H](CC(C)C)C(=O)N1CCC[C@H]1C(=O)N[C@H](C(=O)N[C@@H](CCCCN)C(=O)N[C@@H](CCCNC(=N)N)C(=O)N[C@@H](CCCNC(=N)N)C(=O)N[C@@H](C)C(N)=O)C(C)C  pyknotic neuron area (H&E staining; female transgenic AD mice, hippocampal dentate gyrus; iv, 88.4 nmol/kg/day, 28 days): decreased
O=P(O)(OCCCc1ccccc1)Oc1c2c(c(OP(=O)(O)OCCCc3ccccc3)c3c1C1CC3c3cc4c(cc31)C1CC4c3ccccc31)C1CC2c2cc3c(cc21)C1CC3c2ccccc21  EC50 (liposome dye leakage; liposomes 200 nm; 30 min, added: carboxyfluorescein 50 mM): 3700 nM
O=c1c(O)c(-c2cc(O)ccc2O)oc2cc(O)cc(O)c12  ABTS radical scavenging (250 µg/mL): 67.1 ± 1.1%
C#CCCCOP(=O)(O)Oc1c2c(c(OP(=O)(O)OCCCC#C)c3c1C1CC3c3cc4c(cc31)C1CC4c3ccccc31)C1CC2c2cc3c(cc21)C1CC3c2ccccc21  EC50 (liposome dye leakage; liposomes 200 nm; 30 min, added: carboxyfluorescein 50 mM): 43400 nM
COc1ccc([N+](=O)[O-])cc1NC(=O)CCC(=O)[O][Zn][O]C(=O)CCC(=O)Nc1cc([N+](=O)[O-])ccc1OC.c1ccncc1  ABTS radical scavenging (ABTS; 250 µg/mL): 71.85 ± 0.57%
CCCCCCCCN(CCC(=O)Nc1ccccc1)C(=O)c1ccccn1  minimum survival (Lmna G609G/G609G mouse; intraperitoneal, 40 mg/kg): 158 days
CSCCNC(=O)CCC(C)C1CCC2C3C(O)CC4CC(O)CCC4(C)C3CCC12C (stereo not shown)  mRNA level (item: Cyp7a1; SPF mice, liver; oral gavage, 50 mg/kg daily; baseline: corn oil): increased
CC(C)C[C@@H]1NC(=O)[C@@H](Cc2c[nH]c3ccccc23)NC(=O)[C@H](CCCNC(=N)N)NC(=O)[C@@H](CCC(=O)O)NC(=O)[C@H](CCC(N)=O)NC(=O)[C@@H](CCC(=O)O)NC(=O)[C@H](CCCNC(=N)N)NC(=O)[C@@H](Cc2c[nH]c3ccccc23)NC1=O  pre-beta HDL level (mouse BALB/c; intraperitoneal, 20 mg/kg): increased
COc1ccc2c(c1)C(C)(C)C(/C=C/C1=C(Oc3ccc(C(=O)NCCCCOc4cc(CN(Cc5ccccn5)Cc5ccccn5)cc(CN(Cc5ccccn5)Cc5ccccn5)c4)cc3)C(=C/C=C3/N(CCCCS(=O)(=O)[O-])c4ccc(OC)cc4C3(C)C)CCC1)=[N+]2CCCCS(=O)(=O)[O-].O=[N+]([O-])O.O=[N+]([O-])[O-].O=[N+]([O-])[O-].O=[N+]([O-])[O-].[Zn+2].[Zn+2]  target-to-non-target ratio (photoacoustic imaging; BALB/c mouse LPS-induced sterile myositis, inflamed muscle; intravenous, dose not given, 12 h; baseline: inflamed over vehicle control muscle): 1.04 ± 0.17
N=C(N)NCCC[C@H](NC(=O)[C@H](CCCNC(=N)N)NC(=O)[C@H](CCCNC(=N)N)NC(=O)[C@H](CCC(N)=O)NC(=O)[C@H](CCCNC(=N)N)NC(=O)[C@H](CCCNC(=N)N)NC(=O)[C@H](CCCCN)NC(=O)[C@H](CCCCN)NC(=O)[C@H](CCCNC(=N)N)NC(=O)[C@H](Cc1c[nH]c2ccccc12)NC(=O)[C@H](Cc1c[nH]c2ccccc12)NC(=O)[C@@H](N)CSSC[C@H](N)C(=O)N[C@@H](Cc1c[nH]c2ccccc12)C(=O)N[C@@H](Cc1c[nH]c2ccccc12)C(=O)N[C@@H](CCCNC(=N)N)C(=O)N[C@@H](CCCCN)C(=O)N[C@@H](CCCCN)C(=O)N[C@@H](CCCNC(=N)N)C(=O)N[C@@H](CCCNC(=N)N)C(=O)N[C@@H](CCC(N)=O)C(=O)N[C@@H](CCCNC(=N)N)C(=O)N[C@@H](CCCNC(=N)N)C(=O)N[C@@H](CCCNC(=N)N)C(=O)NCC(N)=O)C(=O)NCC(N)=O  tdTomato-positive astrocytes (ROSA26-LSL-tdTomato mice, sensorimotor cortex; intracortical, 200 µM, region 2, added: TAT-Cre 40 µM): ~50%
CCOP(=O)(OCC)OCCCCOC(=O)CC1=C(C)C(=Cc2ccc([S+](C)[O-])cc2)c2ccc(F)cc21 (stereo not shown)  mortality (BALB/c nude mice, orthotopic A549-GFP xenograft; inhalation, dose not given, died by week 8): 6%
CCN(Cc1ccccc1)C(=O)CCc1nc(CN2CCN(C(=O)Cc3ccc(OC)c(OC)c3)CC2)no1  onset day (thermal withdrawal threshold, Hargreaves test; mouse CCI model; 20 mg/kg, dosing from day 11): 13 days
CCCCCCCC/C=C\CCCCCCCCOP(O)(O)=S.N  dose of crypt protection plateau (mouse, proximal jejunum crypts; subcutaneous, added: 10.6 Gy total-body irradiation): > 2 mg/kg
CC1=C(C(=O)Nc2ccc(F)cc2)C(c2ccccc2Br)NC(=S)N1 (stereo not shown)  mean arterial pressure (carotid artery cannulation; male Wistar rats, anaesthetised; 0.3 mL, 3 h): 23.1 ± 0.87 mm Hg
CC(C)C[C@H](NC(=O)[C@H](Cc1ccccc1)NC(=O)CNC(=O)CNC(=O)[C@@H](N)Cc1ccc(O)cc1)C(=O)N[C@@H](CCCNC(=N)N)C(=O)N[C@@H](CCCNC(=N)N)C(=O)N[C@@H](CCC(N)=O)C(=O)N[C@@H](Cc1ccccc1)C(=O)O  EC50 (C57BL/6 mouse striatal membranes): < 1000 nM and 640 nM

Some of these lines once more:
O=c1c(O)c(-c2cc(O)ccc2O)oc2cc(O)cc(O)c12  ABTS radical scavenging (250 µg/mL): 67.1 ± 1.1%
CC(C)C[C@H](NC(=O)[C@H](Cc1ccccc1)NC(=O)CNC(=O)CNC(=O)[C@@H](N)Cc1ccc(O)cc1)C(=O)N[C@@H](CCCNC(=N)N)C(=O)N[C@@H](CCCNC(=N)N)C(=O)N[C@@H](CCC(N)=O)C(=O)N[C@@H](Cc1ccccc1)C(=O)O  EC50 (C57BL/6 mouse striatal membranes): < 1000 nM and 640 nM
CC(C)C[C@@H]1NC(=O)[C@@H](Cc2c[nH]c3ccccc23)NC(=O)[C@H](CCCNC(=N)N)NC(=O)[C@@H](CCC(=O)O)NC(=O)[C@H](CCC(N)=O)NC(=O)[C@@H](CCC(=O)O)NC(=O)[C@H](CCCNC(=N)N)NC(=O)[C@@H](Cc2c[nH]c3ccccc23)NC1=O  pre-beta HDL level (mouse BALB/c; intraperitoneal, 20 mg/kg): increased
O=C(O)CCCC(=O)O  ABTS radical scavenging (125 µg/mL): 55.1 ± 2.51%
